Assay results collected from several papers.
A part holds a random share of what one study measured. Several values in a cell are separate wells, animals, samples, runs or records.
UniProt P48729, sequence (whole entry, looked up): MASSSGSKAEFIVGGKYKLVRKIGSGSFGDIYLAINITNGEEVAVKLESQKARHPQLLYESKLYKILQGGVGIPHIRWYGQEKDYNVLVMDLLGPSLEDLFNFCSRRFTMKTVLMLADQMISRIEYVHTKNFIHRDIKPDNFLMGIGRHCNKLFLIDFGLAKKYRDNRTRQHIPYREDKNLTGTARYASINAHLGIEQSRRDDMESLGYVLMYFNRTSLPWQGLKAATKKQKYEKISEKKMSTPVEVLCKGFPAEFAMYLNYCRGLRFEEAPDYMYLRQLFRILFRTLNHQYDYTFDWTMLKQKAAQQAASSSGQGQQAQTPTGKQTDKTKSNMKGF
UniProt Q15418, sequence (whole entry, looked up): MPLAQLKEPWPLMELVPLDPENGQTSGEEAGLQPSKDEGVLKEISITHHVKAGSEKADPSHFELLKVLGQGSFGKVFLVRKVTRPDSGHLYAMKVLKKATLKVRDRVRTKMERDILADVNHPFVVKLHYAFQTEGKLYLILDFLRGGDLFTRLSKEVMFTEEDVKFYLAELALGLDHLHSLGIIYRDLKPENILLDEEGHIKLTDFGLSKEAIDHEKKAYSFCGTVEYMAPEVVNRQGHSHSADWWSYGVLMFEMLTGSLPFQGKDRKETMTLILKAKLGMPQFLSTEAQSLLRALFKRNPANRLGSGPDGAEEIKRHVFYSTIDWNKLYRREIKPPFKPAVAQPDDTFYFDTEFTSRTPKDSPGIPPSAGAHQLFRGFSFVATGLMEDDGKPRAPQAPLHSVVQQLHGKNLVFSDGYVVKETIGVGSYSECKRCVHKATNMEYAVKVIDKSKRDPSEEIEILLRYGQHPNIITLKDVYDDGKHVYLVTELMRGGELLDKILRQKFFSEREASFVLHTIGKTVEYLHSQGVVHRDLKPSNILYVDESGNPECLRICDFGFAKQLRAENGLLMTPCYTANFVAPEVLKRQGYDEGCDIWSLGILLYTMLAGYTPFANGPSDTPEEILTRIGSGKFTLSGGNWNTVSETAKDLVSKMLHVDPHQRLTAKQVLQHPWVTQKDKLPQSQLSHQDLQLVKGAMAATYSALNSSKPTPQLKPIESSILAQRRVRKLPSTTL
UniProt Q8N752, sequence (whole entry, looked up): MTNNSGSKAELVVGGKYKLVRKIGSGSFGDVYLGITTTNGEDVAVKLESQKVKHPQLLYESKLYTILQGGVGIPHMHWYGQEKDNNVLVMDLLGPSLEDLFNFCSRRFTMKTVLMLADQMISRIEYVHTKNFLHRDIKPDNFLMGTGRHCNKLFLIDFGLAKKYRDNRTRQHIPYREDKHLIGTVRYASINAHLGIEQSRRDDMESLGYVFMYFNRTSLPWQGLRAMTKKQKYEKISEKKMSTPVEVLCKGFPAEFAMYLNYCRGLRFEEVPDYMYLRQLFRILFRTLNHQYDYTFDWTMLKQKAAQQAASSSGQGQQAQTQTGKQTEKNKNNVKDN

Study 1 — read-out: enzyme activity; action: inhibitor; tested at: 0.5 µM; relative to: control; measurement: remaining activity
Target: Mitogen-activated protein kinase kinase kinase 11 (MAP3K11, Homo sapiens, UniProt Q16584)
UniProt Q16584, sequence (whole entry, looked up): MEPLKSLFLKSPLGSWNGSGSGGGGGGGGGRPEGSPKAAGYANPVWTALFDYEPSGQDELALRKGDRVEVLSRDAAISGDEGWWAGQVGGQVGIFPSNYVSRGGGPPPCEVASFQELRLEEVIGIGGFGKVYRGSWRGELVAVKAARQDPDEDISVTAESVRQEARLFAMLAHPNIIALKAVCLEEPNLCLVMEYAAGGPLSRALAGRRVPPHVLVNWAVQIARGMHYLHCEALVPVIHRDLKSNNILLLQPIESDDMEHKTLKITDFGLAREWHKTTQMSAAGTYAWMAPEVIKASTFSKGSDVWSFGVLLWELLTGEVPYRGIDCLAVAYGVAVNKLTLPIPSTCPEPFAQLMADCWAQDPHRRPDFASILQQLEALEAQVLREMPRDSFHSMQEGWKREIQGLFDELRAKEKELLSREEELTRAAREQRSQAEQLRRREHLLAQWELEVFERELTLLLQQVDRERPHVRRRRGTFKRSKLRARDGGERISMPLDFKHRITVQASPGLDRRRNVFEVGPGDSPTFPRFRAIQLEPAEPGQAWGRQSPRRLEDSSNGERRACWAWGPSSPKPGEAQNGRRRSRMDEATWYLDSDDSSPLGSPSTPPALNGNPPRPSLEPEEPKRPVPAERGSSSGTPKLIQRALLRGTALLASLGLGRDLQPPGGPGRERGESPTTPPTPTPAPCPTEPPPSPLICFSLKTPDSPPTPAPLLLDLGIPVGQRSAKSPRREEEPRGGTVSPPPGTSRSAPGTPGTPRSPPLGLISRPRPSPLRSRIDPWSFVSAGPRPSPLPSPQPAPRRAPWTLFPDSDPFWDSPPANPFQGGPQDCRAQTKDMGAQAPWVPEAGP
Structure (SMILES) = CC(C)n1cnc2c(Nc3cccc(Cl)c3)nc(NCCO)nc21; result = 51%
Structure (SMILES) = FC(F)(F)c1ccc(/C=C/c2nc(COc3ccc(CCCCn4ccnn4)cc3)co2)cc1; result = 99.1%
Structure (SMILES) = CCCCc1c(-c2ccc(O)cc2)[nH]c2nccnc12; result = 32.5%
Structure (SMILES) = O=Nc1c(-c2c(O)[nH]c3ccccc23)[nH]c2ccccc12; result = 17.3%
Structure (SMILES) = O=C(O)/C=C/c1cc(Br)c(Br)c(Br)c1Br; result = 96.3%
Structure (SMILES) = COc1cc2c(N3CCN(C(=O)Nc4ccc(OC(C)C)cc4)CC3)ncnc2cc1OCCCN1CCCCC1; result = 100%
Structure (SMILES) = NC(=O)c1ccc(-c2nc(-c3ccc4c(c3)OCCO4)c(-c3ccccn3)[nH]2)cc1; result = 96%
Structure (SMILES) = Clc1ccc(Nc2nnc(Cc3ccncc3)c3ccccc23)cc1; result = 106%
Structure (SMILES) = CCN(CC)CCCCN1c2ccccc2Oc2ccc(Cl)cc21; result = 99.9%
Structure (SMILES) = C[C@@H](N)[C@H]1CC[C@H](C(=O)Nc2ccncc2)CC1; result = 99.1%
Structure (SMILES) = O=C(c1ccccc1)c1ccc(N2CCOCC2)cc1O; result = 93.2%
Structure (SMILES) = O=c1c(-c2ccc(F)cc2)c(-c2ccncc2)[nH]n1-c1ccc(Cl)cc1; result = 98%
Structure (SMILES) = N#C/C(=C(/N)SC1C=CC=CC1)c1cccc(C(O)c2ccncc2)c1 (stereo not shown); result = 97.4%
Structure (SMILES) = O=C1NC(=O)/C(=C/c2ccc3c(c2)OC(F)(F)O3)S1; result = 97.8%
Structure (SMILES) = c1cc(-c2cnn3cc(-c4ccc(OCCN5CCCCC5)cc4)cnc23)ccn1; result = 57.5%
Structure (SMILES) = CC(C)N(CCC(=O)c1ccc2ccccc2c1)Cc1ccccc1; result = 97%
Structure (SMILES) = O=C1c2ccccc2-c2nc3nnnn3nc21; result = 69%
Structure (SMILES) = COc1cc2c(Nc3ccc(Br)cc3F)ncnc2cc1OCC1CCN(C)CC1; result = 100%
Structure (SMILES) = Nc1nc(Nc2ccc(S(N)(=O)=O)cc2)nn1C(=S)Nc1c(F)cccc1F; result = 1.33%
Structure (SMILES) = NC(=O)c1cccc(-c2cc(Nc3ccc(OC(F)(F)F)cc3)ncn2)c1; result = 99.4%
Structure (SMILES) = CC(C)(C)c1nc2c3cc[nH]c(=O)c3c3cc(F)ccc3c2[nH]1; result = 57%
Structure (SMILES) = N#CC(c1ccnc(NCCc2cccnc2)n1)c1nc2ccccc2s1 (stereo not shown); result = 72.2%
Structure (SMILES) = CNc1cc2c(Nc3cccc(Br)c3)ncnc2cn1; result = 96.9%

Study 2 — read-out: cell-free assay; method: competition with immobilised ligand; tested at: 0.1 µM; measurement: remaining binding
Compound: Cn1cc(Cl)c2c(Oc3c(F)cc(Nc4cc(Cl)nc(N)n4)cc3F)ccnc21
target = Ribosomal protein S6 kinase alpha-3, C-terminal kinase domain (RPS6KA3, Homo sapiens, UniProt P51812); result = 79%
target = Serine/threonine-protein kinase STK11 (STK11, Homo sapiens, UniProt Q15831); result = 100%
target = Casein kinase I isoform alpha-like (CSNK1A1L, Homo sapiens, UniProt Q8N752); result = 98%
target = Glycogen synthase kinase-3 alpha (GSK3A, Homo sapiens, UniProt P49840); result = 99%
target = Epidermal growth factor receptor (EGFR, Homo sapiens, UniProt P00533, A750P/del747-749); result = 94%
target = Mitogen-activated protein kinase 11 (MAPK11, Homo sapiens, UniProt Q15759); result = 100%
target = Phosphatidylinositol 4,5-bisphosphate 3-kinase catalytic subunit alpha isoform (PIK3CA, Homo sapiens, UniProt P42336, C420R); result = 82%
target = Microtubule-associated serine/threonine-protein kinase 1 (MAST1, Homo sapiens, UniProt Q9Y2H9); result = 100%
target = Receptor-interacting serine/threonine-protein kinase 1 (RIPK1, Homo sapiens, UniProt Q13546); result = 100%
target = Serine/threonine-protein kinase RIO2 (RIOK2, Homo sapiens, UniProt Q9BVS4); result = 100%
target = Receptor-type tyrosine-protein kinase FLT3 (FLT3, Homo sapiens, UniProt P36888, D835V/ITD); result = 79%
target = Serine/threonine-protein kinase Nek7 (NEK7, Homo sapiens, UniProt Q8TDX7); result = 100%
target = 1-phosphatidylinositol 3-phosphate 5-kinase (PIKFYVE, Homo sapiens, UniProt Q9Y2I7); result = 91%
target = Tyrosine-protein kinase ABL1, non-phosphorylated (ABL1, Homo sapiens, UniProt P00519, Q252H); result = 78%
target = Hepatocyte growth factor receptor (MET, Homo sapiens, UniProt P08581, M1250T); result = 100%
target = Protein kinase C eta type (PRKCH, Homo sapiens, UniProt P24723); result = 98%
target = Membrane-associated tyrosine- and threonine-specific cdc2-inhibitory kinase (PKMYT1, Homo sapiens, UniProt Q99640); result = 100%
target = Serine/threonine-protein kinase PLK4 (PLK4, Homo sapiens, UniProt O00444); result = 83%
target = Receptor-type tyrosine-protein kinase FLT3, autoinhibited (FLT3, Homo sapiens, UniProt P36888); result = 83%
target = Tyrosine-protein kinase Fgr (FGR, Homo sapiens, UniProt P09769); result = 100%
target = Ribosomal protein S6 kinase alpha-1, C-terminal kinase domain (RPS6KA1, Homo sapiens, UniProt Q15418); result = 100%
target = Casein kinase I isoform alpha (CSNK1A1, Homo sapiens, UniProt P48729); result = 93%
target = Proto-oncogene tyrosine-protein kinase receptor Ret (RET, Homo sapiens, UniProt P07949, M918T); result = 92%
target = LIM domain kinase 1 (LIMK1, Homo sapiens, UniProt P53667); result = 90%
target = Atypical kinase COQ8A, mitochondrial (COQ8A, Homo sapiens, UniProt Q8NI60); result = 100%

Study 3 — read-out: enzyme activity; action: inhibitor; tested at: 77 µM; relative to: untreated; measurement: remaining activity
Target: DNA polymerase theta, ATPase domain (POLQ, Homo sapiens, UniProt O75417)
UniProt O75417, sequence (whole entry, unmodified, looked up): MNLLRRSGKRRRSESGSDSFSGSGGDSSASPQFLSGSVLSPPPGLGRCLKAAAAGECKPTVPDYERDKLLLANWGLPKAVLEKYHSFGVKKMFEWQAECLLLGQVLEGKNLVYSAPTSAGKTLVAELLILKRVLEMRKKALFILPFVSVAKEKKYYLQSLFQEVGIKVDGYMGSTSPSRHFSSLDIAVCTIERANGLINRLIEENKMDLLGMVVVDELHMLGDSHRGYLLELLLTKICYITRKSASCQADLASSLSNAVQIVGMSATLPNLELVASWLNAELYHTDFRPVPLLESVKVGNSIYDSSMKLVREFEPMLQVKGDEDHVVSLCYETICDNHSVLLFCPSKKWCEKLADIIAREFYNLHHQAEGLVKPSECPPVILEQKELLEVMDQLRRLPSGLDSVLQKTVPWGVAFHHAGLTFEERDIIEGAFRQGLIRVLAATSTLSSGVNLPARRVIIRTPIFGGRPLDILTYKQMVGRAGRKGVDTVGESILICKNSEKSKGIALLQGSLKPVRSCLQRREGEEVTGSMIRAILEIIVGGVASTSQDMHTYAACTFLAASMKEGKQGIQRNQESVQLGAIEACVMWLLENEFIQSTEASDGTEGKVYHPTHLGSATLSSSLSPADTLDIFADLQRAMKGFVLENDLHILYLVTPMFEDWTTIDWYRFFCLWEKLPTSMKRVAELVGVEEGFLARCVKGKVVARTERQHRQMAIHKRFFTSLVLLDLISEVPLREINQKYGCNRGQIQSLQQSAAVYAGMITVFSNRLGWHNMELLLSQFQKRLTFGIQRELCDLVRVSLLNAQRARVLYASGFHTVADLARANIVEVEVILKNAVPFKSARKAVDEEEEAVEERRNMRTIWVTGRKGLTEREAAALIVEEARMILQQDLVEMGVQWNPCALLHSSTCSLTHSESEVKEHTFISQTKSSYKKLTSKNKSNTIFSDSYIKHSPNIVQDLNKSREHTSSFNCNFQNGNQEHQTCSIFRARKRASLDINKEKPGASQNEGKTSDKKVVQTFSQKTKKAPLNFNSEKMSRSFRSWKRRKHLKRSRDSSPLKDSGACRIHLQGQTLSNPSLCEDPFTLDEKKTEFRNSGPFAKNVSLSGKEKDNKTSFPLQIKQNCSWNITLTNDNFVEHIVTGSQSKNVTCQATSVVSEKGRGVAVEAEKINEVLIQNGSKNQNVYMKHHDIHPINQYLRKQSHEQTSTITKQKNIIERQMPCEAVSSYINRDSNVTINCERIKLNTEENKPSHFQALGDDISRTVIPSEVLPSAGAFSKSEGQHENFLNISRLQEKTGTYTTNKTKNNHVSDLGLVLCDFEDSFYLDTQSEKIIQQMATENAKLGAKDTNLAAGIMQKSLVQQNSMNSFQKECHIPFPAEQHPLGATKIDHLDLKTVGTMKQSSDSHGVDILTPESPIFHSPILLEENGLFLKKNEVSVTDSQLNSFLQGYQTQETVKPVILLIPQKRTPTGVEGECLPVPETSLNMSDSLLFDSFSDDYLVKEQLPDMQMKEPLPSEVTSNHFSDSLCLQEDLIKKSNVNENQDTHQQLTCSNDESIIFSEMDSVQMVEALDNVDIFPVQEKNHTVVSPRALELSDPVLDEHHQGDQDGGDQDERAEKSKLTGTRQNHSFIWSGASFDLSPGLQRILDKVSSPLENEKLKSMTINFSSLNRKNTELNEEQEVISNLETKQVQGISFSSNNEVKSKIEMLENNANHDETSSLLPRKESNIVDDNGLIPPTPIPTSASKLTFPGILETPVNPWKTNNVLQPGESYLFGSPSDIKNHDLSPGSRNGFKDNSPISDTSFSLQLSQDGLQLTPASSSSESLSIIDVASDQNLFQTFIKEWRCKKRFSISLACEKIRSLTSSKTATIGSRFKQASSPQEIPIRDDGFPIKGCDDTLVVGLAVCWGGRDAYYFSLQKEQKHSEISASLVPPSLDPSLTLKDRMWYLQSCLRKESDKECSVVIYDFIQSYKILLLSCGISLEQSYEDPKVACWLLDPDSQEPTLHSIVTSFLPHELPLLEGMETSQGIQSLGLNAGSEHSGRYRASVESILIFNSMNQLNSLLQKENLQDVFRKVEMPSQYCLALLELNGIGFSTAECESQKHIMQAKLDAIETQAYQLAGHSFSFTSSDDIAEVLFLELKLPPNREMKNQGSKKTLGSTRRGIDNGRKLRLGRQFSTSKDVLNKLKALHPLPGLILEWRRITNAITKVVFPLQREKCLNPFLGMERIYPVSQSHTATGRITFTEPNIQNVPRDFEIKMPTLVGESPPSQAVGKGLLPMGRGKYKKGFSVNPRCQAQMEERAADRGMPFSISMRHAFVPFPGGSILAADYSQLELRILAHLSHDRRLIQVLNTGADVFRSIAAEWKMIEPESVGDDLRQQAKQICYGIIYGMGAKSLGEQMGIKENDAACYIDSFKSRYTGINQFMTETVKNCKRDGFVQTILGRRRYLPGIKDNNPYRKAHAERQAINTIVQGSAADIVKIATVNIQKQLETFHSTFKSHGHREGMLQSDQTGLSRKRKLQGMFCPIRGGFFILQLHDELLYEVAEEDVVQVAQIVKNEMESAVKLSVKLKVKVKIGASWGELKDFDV
SMILES = O=C(Cc1ccc(-c2ccc(OCCN3CCOCC3)cc2)cn1)NCc1ccccc1; result = 101%
SMILES = CCCCN(CCCC)CCCOC(=O)c1ccc(N)cc1; result = 97.8%
SMILES = COc1ncnc(NS(=O)(=O)c2ccc(N)cc2)c1OC; result = 100%
SMILES = CN(C/C=C/C#CC(C)(C)C)Cc1cccc2ccccc12; result = 81.7% and 95.9%
SMILES = Nc1ncnc2c1ncn2[C@@H]1O[C@H](CO)[C@@H](O)[C@@H]1O; result = 103% and 86.3%
SMILES = Nc1cc(N2CCCCC2)nc(N)[n+]1[O-]; result = 106%
SMILES = CCN(CC)CCCN(c1ccccc1)C1Cc2ccccc2C1; result = 99%
SMILES = CC(C)[C@H](CO)Nc1nc(Nc2cccc(Cl)c2)c2ncn(C(C)C)c2n1; result = 101%
SMILES = CC(C)NCCCn1c(Sc2cc3c(cc2I)OCO3)nc2c(N)ncnc21; result = 93.7%
SMILES = O=C(O)c1cc(=O)[nH]c(=O)[nH]1; result = 100%
SMILES = CN(C)CCCN1c2ccccc2Sc2ccc(Cl)cc21; result = 107% and 141%

Study 4 — cell line: HaCaT; tested at: 100 µM; time: 18 h; measurement: viability
SMILES = NCCCC[C@H](NC(=O)[C@@H]1CCCN1C(=O)[C@@H]1CSSC[C@H](N)C(=O)N[C@@H](Cc2ccccc2)C(=O)N[C@@H](Cc2ccccc2)C(=O)N[C@@H](CCC(N)=O)C(=O)N[C@@H](CC(N)=O)C(=O)N1)C(=O)NCC(N)=O; result = 112%
SMILES = O=c1c(O[C@@H]2O[C@H](CO)[C@H](O)[C@H](O)[C@H]2O)c(-c2ccc(O)c(O)c2)oc2cc(O)cc(O)c12; result = 118%
SMILES = CCN(CC)CCNC(=O)c1cc(S(C)(=O)=O)ccc1OC; result = 99.2%
SMILES = COc1cc([C@@H]2c3cc4c(cc3[C@@H](O[C@@H]3O[C@@H]5CO[C@@H](c6cccs6)O[C@H]5[C@H](O)[C@H]3O)[C@H]3COC(=O)[C@H]23)OCO4)cc(OC)c1O; result = 36%
SMILES = COc1ccc2cccc(CCNC(C)=O)c2c1; result = 84.2%
SMILES = Nc1nc2c(c(=O)[nH]1)N(C=O)C(CNc1ccc(C(=O)N[C@@H](CCC(=O)O)C(=O)O)cc1)CN2 (stereo partly shown); result = 92.7%
SMILES = CCOc1ccc(NC(C)=O)cc1; result = 112%
SMILES = c1ccc(Cc2nc3ccccc3[nH]2)cc1; result = 98.1%
SMILES = O=c1ccc2ccccc2o1; result = 100%
SMILES = CC(C)(C)c1cc(C(C)(C)C)c(NC(=O)c2c[nH]c3ccccc3c2=O)cc1O; result = 17%
SMILES = CC(C)n1c(/C=C/[C@H](O)C[C@H](O)CC(=O)O)c(-c2ccc(F)cc2)c2ccccc21 (racemic); result = 107%
SMILES = NCCS; result = 99.2%
SMILES = CC(C)[C@H]1CC[C@H](C(=O)N[C@H](Cc2ccccc2)C(=O)O)CC1; result = 116%
SMILES = CNC1CCCN(c2c(F)cc3c(=O)c(C(=O)O)cn(C4CC4)c3c2OC)C1 (stereo not shown); result = 97.7%

Excerpt of the above (study 3):
SMILES = O=C(O)c1cc(=O)[nH]c(=O)[nH]1; result = 100%
SMILES = Nc1cc(N2CCCCC2)nc(N)[n+]1[O-]; result = 106%
SMILES = CC(C)[C@H](CO)Nc1nc(Nc2cccc(Cl)c2)c2ncn(C(C)C)c2n1; result = 101%
SMILES = COc1ncnc(NS(=O)(=O)c2ccc(N)cc2)c1OC; result = 100%
SMILES = CCCCN(CCCC)CCCOC(=O)c1ccc(N)cc1; result = 97.8%
SMILES = CN(C)CCCN1c2ccccc2Sc2ccc(Cl)cc21; result = 107% and 141%
SMILES = CN(C/C=C/C#CC(C)(C)C)Cc1cccc2ccccc12; result = 81.7% and 95.9%
SMILES = CCN(CC)CCCN(c1ccccc1)C1Cc2ccccc2C1; result = 99%
SMILES = Nc1ncnc2c1ncn2[C@@H]1O[C@H](CO)[C@@H](O)[C@@H]1O; result = 103% and 86.3%
SMILES = CC(C)NCCCn1c(Sc2cc3c(cc2I)OCO3)nc2c(N)ncnc21; result = 93.7%
SMILES = O=C(Cc1ccc(-c2ccc(OCCN3CCOCC3)cc2)cn1)NCc1ccccc1; result = 101%
